Results pooled from the literature.
TMPRSS2: Transmembrane protease serine 2 (TMPRSS2, Homo sapiens, UniProt O15393)
PFF0160c: Dihydroorotate dehydrogenase (quinone), mitochondrial (PFF0160c, Plasmodium falciparum, UniProt Q08210)

CC(=O)N[C@@H](CCC(N)=O)C(=O)N[C@@H](Cc1ccccc1)C(=O)N[C@@H](CCCNC(=N)N)C(=O)c1nc2ccccc2[nH]1  activity vs control (TMPRSS2; enzyme activity, inhibitor; 1 nM): 91%
Cc1nn(C)cc1-c1nc2c(N3CCN(Cc4ccc(Cl)cc4)CC3)c(Cl)cnc2[nH]1  remaining binding (Epidermal growth factor receptor (EGFR, Homo sapiens, UniProt P00533); binding, competition with immobilised ligand; 1 µM): 100%
C#Cc1n[nH]c2c(-c3cn(C(C)c4ccccn4)c(=O)[nH]c3=O)cc(F)cc12 (stereo not drawn)  inhibition (Interleukin-1 receptor-associated kinase 4 (IRAK4, Homo sapiens, UniProt Q9NWZ3); enzyme activity, inhibitor; 1 µM): 12.3%
COc1ncccc1-c1cnn2ccc(N3CCN(C(=O)OC(C)C)CC3)nc12  remaining binding (Serine/threonine-protein kinase tousled-like 1 (TLK1, Homo sapiens, UniProt Q9UKI8); binding, competition with immobilised ligand; 1 µM): 97%
[2H]c1c([2H])c([C@]2([2H])CCCN2C(=O)C(C)(C)Oc2ccc3cn[nH]c3c2)c([2H])c([2H])c1C([2H])([2H])[2H]  remaining binding (Glycogen synthase kinase-3 alpha (GSK3A, Homo sapiens, UniProt P49840); binding, competition with immobilised ligand; 1 µM): 74%
CC[C@@H](C)[C@@H](NC(=O)[C@H](CCc1ccccc1)NC(=O)CCc1ccccc1)C(=O)N[C@@H](CCCNC(=N)N)C(=O)c1nc2ccccc2s1  activity vs control (TMPRSS2; enzyme activity, inhibitor; 1 nM): 92%
c1cncc([C@@H]2CCCN2)c1  inhibition (D(4) dopamine receptor (DRD4, Homo sapiens, UniProt P21917); ligand displacement; 50 µM): 0.78%
CC(C)CC(=O)OC[C@H]1O[C@@](C#N)(c2ccc3c(N)ncnn23)[C@H](O)[C@@H]1O  inhibition (Type-1 angiotensin II receptor (AGTR1, Homo sapiens, UniProt P30556); cell-free assay; 20 µM): 3%
O=C(Nc1cccc(CN2CCN(C(=O)c3cccc(Cl)c3)CC2)c1)c1ccco1  IC50 (PFF0160c; enzyme activity, inhibitor, absorbance): 4.06 µM
N=C(N)NCCC[C@H](NC(=O)OCc1ccccc1)C(=O)N[C@@H](CCC(N)=O)C(=O)N[C@@H](Cc1ccccc1)C(=O)N[C@H](CCCNC(=N)N)C(=O)c1nccs1  activity vs control (TMPRSS2; enzyme activity, inhibitor; 1 nM): 24%
CCc1cc2c(cc1CC)CC(NC[C@@H](O)c1ccc(O)c3[nH]c(=O)ccc13)C2  IC50 (PFF0160c; enzyme activity, inhibitor, absorbance): 3.94 µM
Nc1ncc(-c2nc(N3CCOCC3)nc(N3CCOCC3)n2)c(C(F)F)n1  remaining binding (Epidermal growth factor receptor (EGFR, Homo sapiens, UniProt P00533, del752-759); cell-free assay, competition with immobilised ligand; 10 µM): 88%
